Published values of several laboratories.
Lines come from different studies, so protocols differ. ± gives the spread as reported.
PRMT8: Protein arginine N-methyltransferase 8 (PRMT8, Homo sapiens, UniProt Q9NR22)
Sequence of UniProt Q9NR22 (whole entry, looked up): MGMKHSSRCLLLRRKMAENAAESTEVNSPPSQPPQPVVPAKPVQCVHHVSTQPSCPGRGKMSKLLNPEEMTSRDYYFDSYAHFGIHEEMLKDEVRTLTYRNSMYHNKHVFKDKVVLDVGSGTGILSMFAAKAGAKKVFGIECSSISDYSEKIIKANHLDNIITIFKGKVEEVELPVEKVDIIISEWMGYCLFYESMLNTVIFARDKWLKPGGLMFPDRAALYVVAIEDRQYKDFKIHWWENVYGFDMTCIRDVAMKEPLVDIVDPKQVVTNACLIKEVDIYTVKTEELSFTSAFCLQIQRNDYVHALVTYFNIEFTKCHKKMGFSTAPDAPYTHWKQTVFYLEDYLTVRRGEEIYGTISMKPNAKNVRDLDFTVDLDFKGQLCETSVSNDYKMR
Kcnmb1 with BK alpha subunit: Calcium-activated potassium channel subunit beta-1, with BK alpha subunit (Kcnmb1, Rattus norvegicus, UniProt P97678)
Sequence of UniProt P97678 (whole entry, looked up): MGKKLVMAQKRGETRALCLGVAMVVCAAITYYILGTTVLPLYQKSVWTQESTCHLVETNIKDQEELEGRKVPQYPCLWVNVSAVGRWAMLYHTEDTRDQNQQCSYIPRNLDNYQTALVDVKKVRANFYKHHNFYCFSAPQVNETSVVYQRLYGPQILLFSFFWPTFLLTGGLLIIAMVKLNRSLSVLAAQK
Sequence of UniProt Q923J1 (whole entry, unmodified, looked up): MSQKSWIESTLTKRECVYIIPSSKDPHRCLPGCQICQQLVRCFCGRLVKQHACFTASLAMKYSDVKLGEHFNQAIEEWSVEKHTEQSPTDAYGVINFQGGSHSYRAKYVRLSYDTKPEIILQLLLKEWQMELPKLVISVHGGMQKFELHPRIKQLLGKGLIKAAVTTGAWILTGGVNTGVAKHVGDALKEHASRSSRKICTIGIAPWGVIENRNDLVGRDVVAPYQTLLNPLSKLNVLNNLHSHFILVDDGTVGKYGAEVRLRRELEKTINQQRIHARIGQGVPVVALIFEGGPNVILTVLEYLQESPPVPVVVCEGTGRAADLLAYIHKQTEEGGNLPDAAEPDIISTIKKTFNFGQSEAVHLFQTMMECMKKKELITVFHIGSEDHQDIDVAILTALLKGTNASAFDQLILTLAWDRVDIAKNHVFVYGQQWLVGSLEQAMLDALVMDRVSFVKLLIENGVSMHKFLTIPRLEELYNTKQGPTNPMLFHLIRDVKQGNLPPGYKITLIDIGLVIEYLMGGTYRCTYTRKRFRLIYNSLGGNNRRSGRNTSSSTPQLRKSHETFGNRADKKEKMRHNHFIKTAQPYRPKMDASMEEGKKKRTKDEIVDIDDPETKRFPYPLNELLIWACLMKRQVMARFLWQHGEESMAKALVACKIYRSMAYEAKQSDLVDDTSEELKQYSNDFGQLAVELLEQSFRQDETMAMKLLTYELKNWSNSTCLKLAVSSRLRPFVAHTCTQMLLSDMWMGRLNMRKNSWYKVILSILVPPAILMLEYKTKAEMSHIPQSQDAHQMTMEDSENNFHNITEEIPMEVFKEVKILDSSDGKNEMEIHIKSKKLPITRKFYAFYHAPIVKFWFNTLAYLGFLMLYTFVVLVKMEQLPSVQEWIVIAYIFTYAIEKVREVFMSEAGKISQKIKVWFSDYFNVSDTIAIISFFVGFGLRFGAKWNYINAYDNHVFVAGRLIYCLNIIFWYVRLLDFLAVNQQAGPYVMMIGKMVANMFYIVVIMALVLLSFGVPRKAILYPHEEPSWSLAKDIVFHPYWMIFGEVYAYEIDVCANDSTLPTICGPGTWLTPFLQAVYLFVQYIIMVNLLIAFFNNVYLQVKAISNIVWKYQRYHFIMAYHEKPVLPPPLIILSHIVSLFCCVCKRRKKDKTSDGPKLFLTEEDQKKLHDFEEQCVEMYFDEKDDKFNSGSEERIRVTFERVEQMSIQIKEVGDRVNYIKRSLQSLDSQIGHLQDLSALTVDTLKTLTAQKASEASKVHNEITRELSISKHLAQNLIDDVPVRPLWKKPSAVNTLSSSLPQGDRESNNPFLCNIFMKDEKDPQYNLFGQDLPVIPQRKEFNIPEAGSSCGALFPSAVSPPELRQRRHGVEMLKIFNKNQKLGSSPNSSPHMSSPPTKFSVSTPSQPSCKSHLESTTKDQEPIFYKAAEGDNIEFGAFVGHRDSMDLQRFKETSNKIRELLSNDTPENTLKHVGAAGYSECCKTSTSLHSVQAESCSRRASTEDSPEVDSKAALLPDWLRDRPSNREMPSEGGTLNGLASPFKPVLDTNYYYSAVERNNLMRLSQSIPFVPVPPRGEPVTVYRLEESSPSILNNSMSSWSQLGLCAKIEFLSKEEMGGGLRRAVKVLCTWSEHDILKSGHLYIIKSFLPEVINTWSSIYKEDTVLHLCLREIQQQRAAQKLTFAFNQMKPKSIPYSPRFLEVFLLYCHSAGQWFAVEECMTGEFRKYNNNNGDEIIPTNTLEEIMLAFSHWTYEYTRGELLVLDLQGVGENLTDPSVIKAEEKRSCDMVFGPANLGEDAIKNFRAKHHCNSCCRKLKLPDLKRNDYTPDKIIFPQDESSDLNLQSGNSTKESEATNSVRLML
Sequence of UniProt Q9QXD6 (whole entry, looked up): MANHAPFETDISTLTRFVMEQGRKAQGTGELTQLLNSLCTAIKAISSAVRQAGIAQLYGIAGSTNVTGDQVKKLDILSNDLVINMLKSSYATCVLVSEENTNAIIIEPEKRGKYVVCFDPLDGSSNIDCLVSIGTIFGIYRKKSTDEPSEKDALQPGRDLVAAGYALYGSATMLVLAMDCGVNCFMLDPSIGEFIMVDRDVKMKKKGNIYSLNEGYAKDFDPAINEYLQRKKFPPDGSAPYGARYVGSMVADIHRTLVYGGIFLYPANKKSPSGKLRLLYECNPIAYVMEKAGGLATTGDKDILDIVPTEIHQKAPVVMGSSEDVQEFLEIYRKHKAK
Sequence of UniProt Q12791 (whole entry, looked up): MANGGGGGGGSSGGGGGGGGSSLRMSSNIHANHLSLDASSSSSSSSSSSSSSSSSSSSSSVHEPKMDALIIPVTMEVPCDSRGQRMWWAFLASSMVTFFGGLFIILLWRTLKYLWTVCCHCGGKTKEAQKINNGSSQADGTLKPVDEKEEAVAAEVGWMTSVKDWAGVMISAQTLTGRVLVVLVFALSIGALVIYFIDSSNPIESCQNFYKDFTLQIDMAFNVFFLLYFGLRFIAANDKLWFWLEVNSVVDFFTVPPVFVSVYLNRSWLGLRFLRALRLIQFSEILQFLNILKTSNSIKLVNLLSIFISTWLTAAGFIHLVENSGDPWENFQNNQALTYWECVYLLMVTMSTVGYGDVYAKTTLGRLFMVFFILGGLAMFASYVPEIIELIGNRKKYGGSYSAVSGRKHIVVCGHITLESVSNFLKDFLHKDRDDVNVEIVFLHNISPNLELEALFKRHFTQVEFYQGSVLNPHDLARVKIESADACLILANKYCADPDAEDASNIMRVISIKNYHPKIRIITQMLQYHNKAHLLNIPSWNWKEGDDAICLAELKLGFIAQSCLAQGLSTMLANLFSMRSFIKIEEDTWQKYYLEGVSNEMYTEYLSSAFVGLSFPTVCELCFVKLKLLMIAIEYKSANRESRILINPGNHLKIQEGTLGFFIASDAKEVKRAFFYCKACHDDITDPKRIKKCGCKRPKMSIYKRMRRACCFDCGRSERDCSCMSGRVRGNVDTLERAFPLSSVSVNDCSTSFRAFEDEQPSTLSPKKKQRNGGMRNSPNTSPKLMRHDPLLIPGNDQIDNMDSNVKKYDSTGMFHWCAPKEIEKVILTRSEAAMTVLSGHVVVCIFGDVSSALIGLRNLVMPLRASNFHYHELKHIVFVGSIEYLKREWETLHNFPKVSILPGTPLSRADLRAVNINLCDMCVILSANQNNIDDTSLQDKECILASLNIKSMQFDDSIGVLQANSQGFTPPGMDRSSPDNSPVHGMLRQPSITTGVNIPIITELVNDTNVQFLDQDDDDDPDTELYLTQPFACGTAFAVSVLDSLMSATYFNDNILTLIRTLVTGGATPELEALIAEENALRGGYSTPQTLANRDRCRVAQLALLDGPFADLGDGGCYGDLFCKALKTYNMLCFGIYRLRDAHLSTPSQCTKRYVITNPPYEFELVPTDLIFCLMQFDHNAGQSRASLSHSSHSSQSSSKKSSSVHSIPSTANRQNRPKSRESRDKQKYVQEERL
Sequence of UniProt Q96D96 (whole entry, unmodified, looked up): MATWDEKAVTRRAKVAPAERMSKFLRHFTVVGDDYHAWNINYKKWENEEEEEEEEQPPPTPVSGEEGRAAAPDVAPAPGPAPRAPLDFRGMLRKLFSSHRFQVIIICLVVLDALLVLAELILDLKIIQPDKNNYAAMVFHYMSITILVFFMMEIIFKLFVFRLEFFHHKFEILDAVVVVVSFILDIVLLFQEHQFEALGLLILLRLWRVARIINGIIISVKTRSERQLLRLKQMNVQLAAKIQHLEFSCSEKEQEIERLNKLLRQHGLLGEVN

CCCCN1/C(=C/C=C/c2sc3ccc(Br)cc3[n+]2CCCC)Sc2ccc(Br)cc21.[I-]  Hill coefficient (PRMT8; inhibitor, scintillation proximity; together with: biotinylated histone H4 peptide substrate): 1.12
CN(C)C(=O)C(CCN1CCC(O)(c2ccc(Cl)cc2)CC1)(c1ccccc1)c1ccccc1  Hill coefficient (Calcium-activated potassium channel subunit alpha-1, with LRRC26 γ1 subunit (KCNMA1, Homo sapiens, UniProt Q12791); BK channel conductance, inside-out patch clamp; BKα/γ1, Vm 40 mV, nominally Ca2+-free): 0.756 ± 0.11
O=C(Nc1ccccc1)c1nnc(/C(Cl)=C\c2cccc([N+](=O)[O-])c2)s1  Hill coefficient (Kcnmb1 with BK alpha subunit; BK channel current; CHO with alpha and beta1): 0.19 ± 0.12
CC1(C)C(/C=C/C=C2/N(CCCc3ccccc3)c3ccc(Cl)cc3C2(C)C)=[N+](CCCc2ccccc2)c2ccc(Cl)cc21.[Br-]  Hill coefficient (PRMT8; inhibitor, scintillation proximity; together with: biotinylated histone H4 peptide substrate): 3.33
O=C(Cc1ccc([N+](=O)[O-])cc1)NC[C@H](c1ccccc1Cl)c1c[nH]c2ccccc12  Hill coefficient (Kcnmb1 with BK alpha subunit; BK channel current; CHO with alpha and beta1): 0.11 ± 0.09
N=C(N)Nc1nc2ccccc2[nH]1  Hill coefficient (HVCN1 (Homo sapiens, UniProt Q96D96, F149L/F150A); proton current, inhibitor, inside-out patch clamp): 0.94 ± 0.04
COc1ccc(C(=O)NC(=S)Nc2ccc(O)c(-c3nc4ccc(C)cc4o3)c2)cc1[N+](=O)[O-]  Hill coefficient (Kcnmb1 with BK alpha subunit; BK channel current; CHO with alpha and beta1): 0.39 ± 0.2
CCCCN1/C(=C/C=C(Br)/C=C/C2=[N+](CCCC)c3ccc(Br)cc3C2(C)C)C(C)(C)c2cc(Br)ccc21.[I-]  Hill coefficient (PRMT8; inhibitor, scintillation proximity; together with: biotinylated histone H4 peptide substrate): 0.62
c1ccc2c(c1)CCC[C@H]2Nc1nc2ccccc2[nH]1  Hill coefficient (Trpm7 (Mus musculus, UniProt Q923J1, F924W); calcium influx, inhibitor, aequorin luminescence; HEK293T expressing Trpm7): 1.46 ± 0.11
CC[C@@H](C)NS(=O)(=O)c1cc([N+](=O)[O-])ccc1Oc1c(C)c(C(=O)NC[C@@H]2CCCO2)nn1-c1cccc(C)c1C  Hill coefficient (Kcnmb1 with BK alpha subunit; BK channel current; CHO with alpha and beta1): 0.31 ± 0.09
N#Cc1ccc(COC[C@H]2O[C@@H](n3c(NCc4ccc(Cl)c(Cl)c4)nc4c(N)ncnc43)[C@H](O)[C@@H]2O)cc1  Hill coefficient (Trpm7 (Mus musculus, UniProt Q923J1); calcium influx, inhibitor, aequorin luminescence; HEK293T expressing wild-type Trpm7): 2.27 ± 0.25
O=P(O)(O)OC[C@H]1O[C@@](CO)(OP(=O)(O)O)[C@@H](O)[C@@H]1O  Hill coefficient (Fructose-1,6-bisphosphatase 1 (Mus musculus, UniProt Q9QXD6); untagged wild type): 1.4 ± 0.15

A few entries again:
N=C(N)Nc1nc2ccccc2[nH]1  Hill coefficient (HVCN1 (Homo sapiens, UniProt Q96D96, F149L/F150A); proton current, inhibitor, inside-out patch clamp): 0.94 ± 0.04
